Published values pooled from the literature.
Lines come from different studies, so protocols differ. Values joined by “and” are separate records of one study, mostly repeats; a detail may differ. Numbers after ± are the reported error.
TOP2B: DNA topoisomerase 2-beta (TOP2B, Homo sapiens, UniProt Q02880)
Sequence of UniProt Q02880 (whole entry, looked up): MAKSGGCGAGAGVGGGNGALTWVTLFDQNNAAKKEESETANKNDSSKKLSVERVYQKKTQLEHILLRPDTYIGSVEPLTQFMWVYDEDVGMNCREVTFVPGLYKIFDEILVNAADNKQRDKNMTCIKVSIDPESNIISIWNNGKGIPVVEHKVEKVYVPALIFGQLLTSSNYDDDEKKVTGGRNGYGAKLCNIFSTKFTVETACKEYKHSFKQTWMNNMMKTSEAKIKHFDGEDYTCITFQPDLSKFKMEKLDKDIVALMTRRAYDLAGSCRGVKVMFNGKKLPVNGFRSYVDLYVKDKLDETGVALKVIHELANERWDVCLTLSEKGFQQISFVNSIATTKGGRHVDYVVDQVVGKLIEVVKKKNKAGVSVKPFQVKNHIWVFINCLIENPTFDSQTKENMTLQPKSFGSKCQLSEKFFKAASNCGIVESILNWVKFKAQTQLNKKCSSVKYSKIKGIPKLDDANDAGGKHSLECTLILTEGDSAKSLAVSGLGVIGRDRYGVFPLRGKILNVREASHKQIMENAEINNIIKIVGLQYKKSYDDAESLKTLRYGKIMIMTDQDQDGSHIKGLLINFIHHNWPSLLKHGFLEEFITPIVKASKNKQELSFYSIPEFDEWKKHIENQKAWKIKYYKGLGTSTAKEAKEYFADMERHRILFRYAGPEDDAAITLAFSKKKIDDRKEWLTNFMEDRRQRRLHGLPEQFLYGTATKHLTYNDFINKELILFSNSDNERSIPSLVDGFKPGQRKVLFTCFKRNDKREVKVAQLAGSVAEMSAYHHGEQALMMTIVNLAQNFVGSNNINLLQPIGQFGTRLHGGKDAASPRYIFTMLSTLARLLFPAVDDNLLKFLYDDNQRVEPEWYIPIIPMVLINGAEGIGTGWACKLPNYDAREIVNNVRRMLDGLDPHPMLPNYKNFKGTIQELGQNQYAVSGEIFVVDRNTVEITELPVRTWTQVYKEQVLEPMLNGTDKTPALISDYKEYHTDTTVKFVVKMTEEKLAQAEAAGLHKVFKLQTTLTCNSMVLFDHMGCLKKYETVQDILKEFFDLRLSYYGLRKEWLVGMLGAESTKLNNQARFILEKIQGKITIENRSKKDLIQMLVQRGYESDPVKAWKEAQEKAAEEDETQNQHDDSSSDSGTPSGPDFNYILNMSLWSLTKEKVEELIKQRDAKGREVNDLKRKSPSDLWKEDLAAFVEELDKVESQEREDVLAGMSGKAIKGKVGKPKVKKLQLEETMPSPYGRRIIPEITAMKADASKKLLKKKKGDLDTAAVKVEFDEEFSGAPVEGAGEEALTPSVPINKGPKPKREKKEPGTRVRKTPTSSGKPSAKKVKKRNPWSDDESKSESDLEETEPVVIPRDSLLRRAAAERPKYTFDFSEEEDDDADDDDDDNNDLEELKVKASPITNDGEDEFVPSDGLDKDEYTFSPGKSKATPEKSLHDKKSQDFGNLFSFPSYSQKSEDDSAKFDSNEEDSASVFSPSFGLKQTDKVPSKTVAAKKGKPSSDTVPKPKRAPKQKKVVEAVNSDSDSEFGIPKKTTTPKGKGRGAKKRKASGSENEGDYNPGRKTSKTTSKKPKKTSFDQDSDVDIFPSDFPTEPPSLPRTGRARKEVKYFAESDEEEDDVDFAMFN
UCHL1: Ubiquitin carboxyl-terminal hydrolase isozyme L1 (UCHL1, Homo sapiens, UniProt P09936)
Sequence of UniProt P09936 (whole entry, looked up): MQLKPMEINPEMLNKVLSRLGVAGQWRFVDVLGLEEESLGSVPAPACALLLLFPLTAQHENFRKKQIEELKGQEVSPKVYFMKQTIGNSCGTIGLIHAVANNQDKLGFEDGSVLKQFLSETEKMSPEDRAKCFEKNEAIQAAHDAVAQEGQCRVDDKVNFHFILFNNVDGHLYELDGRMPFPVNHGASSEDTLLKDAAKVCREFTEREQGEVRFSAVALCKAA
Sequence of UniProt Q96S37 (whole entry, looked up): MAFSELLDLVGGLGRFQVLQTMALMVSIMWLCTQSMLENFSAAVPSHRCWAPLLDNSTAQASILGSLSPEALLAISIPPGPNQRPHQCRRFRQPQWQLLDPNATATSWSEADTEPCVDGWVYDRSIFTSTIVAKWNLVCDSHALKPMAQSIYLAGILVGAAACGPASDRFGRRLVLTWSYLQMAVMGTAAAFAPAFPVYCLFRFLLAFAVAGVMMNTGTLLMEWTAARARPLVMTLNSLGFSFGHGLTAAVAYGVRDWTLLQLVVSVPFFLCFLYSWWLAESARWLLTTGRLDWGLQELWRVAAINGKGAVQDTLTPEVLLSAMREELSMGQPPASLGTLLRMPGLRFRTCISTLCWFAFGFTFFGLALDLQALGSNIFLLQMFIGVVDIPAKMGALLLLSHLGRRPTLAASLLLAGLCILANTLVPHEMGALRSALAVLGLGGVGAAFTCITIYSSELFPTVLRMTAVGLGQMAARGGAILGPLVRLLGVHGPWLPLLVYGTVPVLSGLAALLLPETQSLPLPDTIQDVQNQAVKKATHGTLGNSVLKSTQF
Sequence of UniProt P53350 (whole entry, looked up): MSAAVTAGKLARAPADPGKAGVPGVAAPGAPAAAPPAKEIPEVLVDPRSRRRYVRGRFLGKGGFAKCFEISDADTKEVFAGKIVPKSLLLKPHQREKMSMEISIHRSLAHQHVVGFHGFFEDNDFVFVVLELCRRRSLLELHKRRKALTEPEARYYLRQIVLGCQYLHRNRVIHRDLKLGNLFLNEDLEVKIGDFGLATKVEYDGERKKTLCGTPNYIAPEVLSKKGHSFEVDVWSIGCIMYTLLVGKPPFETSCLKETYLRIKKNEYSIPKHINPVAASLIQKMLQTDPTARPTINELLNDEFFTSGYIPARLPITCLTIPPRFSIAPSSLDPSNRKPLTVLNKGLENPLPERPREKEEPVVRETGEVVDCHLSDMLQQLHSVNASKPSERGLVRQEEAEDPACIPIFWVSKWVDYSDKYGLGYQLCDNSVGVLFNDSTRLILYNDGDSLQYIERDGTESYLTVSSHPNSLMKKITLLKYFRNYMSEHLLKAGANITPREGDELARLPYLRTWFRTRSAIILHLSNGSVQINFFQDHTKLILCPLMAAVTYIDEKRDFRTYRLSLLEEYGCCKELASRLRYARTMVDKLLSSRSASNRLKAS
Sequence of UniProt P18825 (whole entry, looked up): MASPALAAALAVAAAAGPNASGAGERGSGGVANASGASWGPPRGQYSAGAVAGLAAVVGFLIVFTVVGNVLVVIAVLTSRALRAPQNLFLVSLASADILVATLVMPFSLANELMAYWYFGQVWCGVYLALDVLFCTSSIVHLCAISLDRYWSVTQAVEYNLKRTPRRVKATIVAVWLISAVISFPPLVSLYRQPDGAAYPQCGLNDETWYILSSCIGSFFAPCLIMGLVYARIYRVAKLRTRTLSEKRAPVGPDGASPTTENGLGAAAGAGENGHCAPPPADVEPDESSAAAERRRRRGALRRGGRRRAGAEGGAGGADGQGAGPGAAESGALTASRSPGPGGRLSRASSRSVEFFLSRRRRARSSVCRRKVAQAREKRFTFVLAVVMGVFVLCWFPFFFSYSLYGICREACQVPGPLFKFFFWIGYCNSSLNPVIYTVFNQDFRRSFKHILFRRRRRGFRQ
Sequence of UniProt Q6P179 (whole entry, looked up): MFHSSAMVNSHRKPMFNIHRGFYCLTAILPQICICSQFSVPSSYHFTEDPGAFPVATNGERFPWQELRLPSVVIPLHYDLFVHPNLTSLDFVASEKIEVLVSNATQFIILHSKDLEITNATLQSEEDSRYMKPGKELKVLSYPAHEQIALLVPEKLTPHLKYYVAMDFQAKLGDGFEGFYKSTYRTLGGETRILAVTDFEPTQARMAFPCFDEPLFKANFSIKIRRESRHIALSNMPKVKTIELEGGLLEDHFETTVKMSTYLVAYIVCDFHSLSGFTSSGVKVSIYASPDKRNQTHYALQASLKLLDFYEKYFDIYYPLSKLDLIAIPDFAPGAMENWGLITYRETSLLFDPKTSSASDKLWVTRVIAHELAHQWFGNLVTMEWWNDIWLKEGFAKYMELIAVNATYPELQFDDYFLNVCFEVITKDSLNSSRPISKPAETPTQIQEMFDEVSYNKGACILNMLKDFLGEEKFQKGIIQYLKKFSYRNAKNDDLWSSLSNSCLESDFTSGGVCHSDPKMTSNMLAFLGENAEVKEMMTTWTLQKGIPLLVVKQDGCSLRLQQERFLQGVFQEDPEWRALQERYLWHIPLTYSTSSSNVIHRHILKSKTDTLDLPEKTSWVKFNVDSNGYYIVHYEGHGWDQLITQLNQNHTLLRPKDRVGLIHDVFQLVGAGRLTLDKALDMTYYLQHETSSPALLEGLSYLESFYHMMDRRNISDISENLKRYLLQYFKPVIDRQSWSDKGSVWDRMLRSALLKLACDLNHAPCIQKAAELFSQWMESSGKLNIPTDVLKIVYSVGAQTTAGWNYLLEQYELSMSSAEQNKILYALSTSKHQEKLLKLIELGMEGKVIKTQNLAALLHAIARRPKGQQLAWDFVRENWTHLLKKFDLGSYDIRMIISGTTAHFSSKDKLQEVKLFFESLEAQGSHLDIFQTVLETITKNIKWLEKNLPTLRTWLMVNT

Compound	tested on	test	system	conditions	scale	quantity	result
COc1cc(-c2cc(C(C)=O)n3ccccc23)cc(OC)c1Cn1ccnc1	Bromodomain-containing protein 4, BD1 (BRD4, Homo sapiens, UniProt O60885)	–	–	–	–	ΔTm	5.8 °C
O=c1nc(SCc2cc(F)cc(C(F)(F)F)c2)nc(SCc2ccc3sccc3c2)[nH]1	TOP2B	decatenation	–	31.25 µM	–	mean decatenated DNA	0%
CCc1oc2ccccc2c1C(=O)c1cc(Br)c(O)c(Br)c1	Solute carrier family 22 member 12 (SLC22A12, Homo sapiens, UniProt Q96S37)	inhibitor	HEK-293T	0.1 µM, 10 min, 37 °C, with: [14C]urate 10 µM	–	normalized urate uptake	1 and 1.09 and 1.1
COC(=O)C#Cc1ccccc1[N+](=O)[O-]	UCHL1	covalent, intact protein LC-MS	–	12.5 µM	–	labelling	8.03%
COc1ccc(-c2cc(OCC(=O)N(C)Cc3cccnc3C)nc(-n3nc(C)cc3C)n2)cc1	Endoplasmic reticulum aminopeptidase 2 (ERAP2, Homo sapiens, UniProt Q6P179)	–	–	with: Leu-AMC substrate	relative to: IRAP over ERAP2	selectivity ratio	> 200 fold
Cc1cc(Oc2ncccc2CN2CCN(C(c3ccccc3)c3ccccc3)CC2)ccc1-c1c(C)c(=O)[nH]c(=O)n1C	Alpha-2C adrenergic receptor (ADRA2C, Homo sapiens, UniProt P18825)	binding, radioligand binding	–	with: [3H]rauwolscine	relative to: Ki alpha2B over Ki alpha2C	selectivity ratio	1
CC1(c2ccccc2)CC(C)(C)N(C(=O)c2cc([N+](=O)[O-])cc([N+](=O)[O-])c2)c2ccccc21 (stereo not shown)	Trypanosoma cruzi	reporter translation, Renilla luciferase mRNA translation	cell-free extract	40 µM	relative to: DMSO	inhibition	-10.4%
O=c1nc(SCc2cc(F)cc(C(F)(F)F)c2)nc(SCc2ccc3nc(Cl)ccc3c2)[nH]1	TOP2B	decatenation	–	15.6 µM, replicate 2	–	decatenated DNA	24.5%
N#CC(=Cc1ccccc1OCc1ccccc1)C(=O)NC(N)=O	UCHL1	covalent, intact protein LC-MS	–	12.5 µM	–	labelling	25.3%
CC(=O)N[C@H](C(=O)N[C@@H](CC(=O)O)C(=O)N1CCC[C@H]1C(=O)N1CCC[C@H]1C(=O)N[C@@H](CC(C)C)C(=O)N[C@@H](Cc1c[nH]cn1)C(=O)N[C@@H](CO)C(=O)N[C@H](C(=O)N[C@@H](C)C(N)=O)[C@@H](C)OP(=O)(O)O)C(C)C	Serine/threonine-protein kinase PLK1 (PLK1, Homo sapiens, UniProt P53350)	polo-box domain binding, isothermal titration calorimetry	–	concentration not given, 25 °C	–	binding enthalpy	-14.5 ± 0.11 kcal/mol
CC1CCC(C(C)C)C(OC(=O)Cn2c(-c3ccc(Br)cc3)[n+](C)c3ccccc32)C1.[Cl-] (stereo not shown)	Trypanosoma cruzi	reporter translation, Renilla luciferase mRNA translation	cell-free extract	40 µM	relative to: DMSO	inhibition	22.7%
O=C(CCl)NC(=O)Nc1ccccc1	UCHL1	covalent, intact protein LC-MS	–	12.5 µM	–	labelling	13.5%
CON(C)C(=O)[C@H](CCSC)NS(=O)(=O)c1cccc(Cl)c1O	malate dehydrogenase	enzyme activity, inhibitor	–	200 µM, pH 7.0, 1% DMSO, aggregation counter-screen	–	remaining activity	84%

Excerpt of the above:
Compound	tested on	test	system	conditions	scale	quantity	result
N#CC(=Cc1ccccc1OCc1ccccc1)C(=O)NC(N)=O	UCHL1	covalent, intact protein LC-MS	–	12.5 µM	–	labelling	25.3%
CC(=O)N[C@H](C(=O)N[C@@H](CC(=O)O)C(=O)N1CCC[C@H]1C(=O)N1CCC[C@H]1C(=O)N[C@@H](CC(C)C)C(=O)N[C@@H](Cc1c[nH]cn1)C(=O)N[C@@H](CO)C(=O)N[C@H](C(=O)N[C@@H](C)C(N)=O)[C@@H](C)OP(=O)(O)O)C(C)C	Serine/threonine-protein kinase PLK1 (PLK1, Homo sapiens, UniProt P53350)	polo-box domain binding, isothermal titration calorimetry	–	concentration not given, 25 °C	–	binding enthalpy	-14.5 ± 0.11 kcal/mol
